Measured values collected from several papers.
A part holds a random share of what one study measured. Values joined by “and” are separate records of one study, mostly repeats; a detail may differ.
UniProt P49761, sequence (whole entry, looked up): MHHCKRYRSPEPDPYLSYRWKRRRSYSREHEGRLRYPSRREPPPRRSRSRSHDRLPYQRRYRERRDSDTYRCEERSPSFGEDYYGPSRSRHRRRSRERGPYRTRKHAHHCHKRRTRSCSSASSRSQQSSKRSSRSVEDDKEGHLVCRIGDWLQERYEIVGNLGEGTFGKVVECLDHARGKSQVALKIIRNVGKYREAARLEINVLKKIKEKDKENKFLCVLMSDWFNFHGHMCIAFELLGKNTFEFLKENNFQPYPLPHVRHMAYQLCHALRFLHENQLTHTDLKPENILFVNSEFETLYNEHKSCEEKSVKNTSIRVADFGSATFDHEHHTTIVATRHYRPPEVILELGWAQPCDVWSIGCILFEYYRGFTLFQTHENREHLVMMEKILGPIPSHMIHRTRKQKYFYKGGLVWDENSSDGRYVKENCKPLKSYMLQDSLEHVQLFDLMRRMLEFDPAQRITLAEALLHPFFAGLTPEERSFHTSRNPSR
UniProt P29597, sequence (whole entry, looked up): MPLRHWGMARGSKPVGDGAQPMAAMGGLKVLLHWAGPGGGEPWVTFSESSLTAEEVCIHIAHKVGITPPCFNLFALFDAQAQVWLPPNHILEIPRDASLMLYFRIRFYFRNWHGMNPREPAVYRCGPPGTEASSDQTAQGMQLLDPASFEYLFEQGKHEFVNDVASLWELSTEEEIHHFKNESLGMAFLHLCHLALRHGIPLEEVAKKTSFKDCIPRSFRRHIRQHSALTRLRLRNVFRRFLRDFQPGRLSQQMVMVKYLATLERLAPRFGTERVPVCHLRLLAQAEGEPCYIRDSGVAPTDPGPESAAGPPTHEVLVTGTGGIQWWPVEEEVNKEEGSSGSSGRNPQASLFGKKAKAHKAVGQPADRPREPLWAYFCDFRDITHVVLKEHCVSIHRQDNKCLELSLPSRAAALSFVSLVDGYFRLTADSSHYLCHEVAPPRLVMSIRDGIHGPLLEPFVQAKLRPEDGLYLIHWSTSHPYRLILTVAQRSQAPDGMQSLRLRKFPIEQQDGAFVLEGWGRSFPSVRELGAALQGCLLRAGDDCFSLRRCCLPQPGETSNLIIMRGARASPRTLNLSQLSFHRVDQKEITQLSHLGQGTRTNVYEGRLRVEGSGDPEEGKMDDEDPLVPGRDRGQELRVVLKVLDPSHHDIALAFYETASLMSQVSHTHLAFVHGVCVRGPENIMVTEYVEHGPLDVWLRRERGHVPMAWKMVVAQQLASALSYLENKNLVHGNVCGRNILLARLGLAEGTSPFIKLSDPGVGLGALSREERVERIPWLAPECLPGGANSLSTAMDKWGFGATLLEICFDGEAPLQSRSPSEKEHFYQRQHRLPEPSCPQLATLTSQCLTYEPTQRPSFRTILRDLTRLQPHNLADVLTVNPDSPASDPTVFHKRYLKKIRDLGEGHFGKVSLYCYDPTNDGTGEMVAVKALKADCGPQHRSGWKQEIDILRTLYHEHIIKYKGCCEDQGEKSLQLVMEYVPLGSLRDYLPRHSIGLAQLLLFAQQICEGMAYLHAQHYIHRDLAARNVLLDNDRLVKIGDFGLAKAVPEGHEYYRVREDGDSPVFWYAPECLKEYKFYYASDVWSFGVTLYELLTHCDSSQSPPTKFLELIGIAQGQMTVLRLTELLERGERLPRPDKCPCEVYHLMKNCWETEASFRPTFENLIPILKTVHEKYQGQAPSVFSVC
UniProt Q96D53, sequence (whole entry, looked up): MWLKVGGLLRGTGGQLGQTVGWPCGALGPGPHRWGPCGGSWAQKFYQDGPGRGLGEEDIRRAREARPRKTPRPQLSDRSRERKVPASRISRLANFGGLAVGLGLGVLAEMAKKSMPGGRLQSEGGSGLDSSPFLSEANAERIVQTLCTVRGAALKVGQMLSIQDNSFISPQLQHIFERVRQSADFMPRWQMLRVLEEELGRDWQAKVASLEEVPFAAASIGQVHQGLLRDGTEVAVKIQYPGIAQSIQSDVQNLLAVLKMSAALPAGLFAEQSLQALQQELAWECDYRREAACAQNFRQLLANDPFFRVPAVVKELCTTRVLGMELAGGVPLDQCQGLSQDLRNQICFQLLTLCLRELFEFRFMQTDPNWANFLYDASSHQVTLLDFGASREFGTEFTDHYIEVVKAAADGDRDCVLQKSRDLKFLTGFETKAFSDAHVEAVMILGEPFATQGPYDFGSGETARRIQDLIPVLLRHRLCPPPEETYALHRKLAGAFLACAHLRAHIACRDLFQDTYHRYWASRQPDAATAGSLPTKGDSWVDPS
UniProt P54646, sequence (whole entry, looked up): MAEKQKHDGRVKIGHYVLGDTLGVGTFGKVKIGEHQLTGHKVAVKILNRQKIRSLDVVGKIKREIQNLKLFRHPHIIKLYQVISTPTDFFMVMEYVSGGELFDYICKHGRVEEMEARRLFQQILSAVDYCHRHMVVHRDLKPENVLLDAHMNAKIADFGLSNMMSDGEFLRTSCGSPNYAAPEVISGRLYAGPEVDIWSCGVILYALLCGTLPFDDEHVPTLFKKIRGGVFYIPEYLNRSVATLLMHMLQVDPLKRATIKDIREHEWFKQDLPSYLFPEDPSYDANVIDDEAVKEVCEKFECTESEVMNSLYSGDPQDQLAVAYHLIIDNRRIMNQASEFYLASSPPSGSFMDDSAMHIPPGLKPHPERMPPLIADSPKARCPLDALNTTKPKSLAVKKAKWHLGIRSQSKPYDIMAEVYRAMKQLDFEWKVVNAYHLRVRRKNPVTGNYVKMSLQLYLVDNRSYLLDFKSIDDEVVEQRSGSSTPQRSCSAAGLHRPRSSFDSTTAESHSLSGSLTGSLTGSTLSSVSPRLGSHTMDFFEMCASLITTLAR
UniProt Q00526, sequence (whole entry, looked up): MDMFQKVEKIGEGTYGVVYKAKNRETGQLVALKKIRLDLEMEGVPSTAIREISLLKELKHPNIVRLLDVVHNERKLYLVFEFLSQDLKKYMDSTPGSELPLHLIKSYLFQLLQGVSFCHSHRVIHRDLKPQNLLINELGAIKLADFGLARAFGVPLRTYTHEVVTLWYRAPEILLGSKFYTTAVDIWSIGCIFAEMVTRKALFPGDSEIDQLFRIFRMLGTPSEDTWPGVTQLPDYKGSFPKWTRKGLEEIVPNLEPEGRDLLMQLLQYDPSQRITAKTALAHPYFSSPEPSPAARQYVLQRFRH
UniProt P49336, sequence (whole entry, looked up): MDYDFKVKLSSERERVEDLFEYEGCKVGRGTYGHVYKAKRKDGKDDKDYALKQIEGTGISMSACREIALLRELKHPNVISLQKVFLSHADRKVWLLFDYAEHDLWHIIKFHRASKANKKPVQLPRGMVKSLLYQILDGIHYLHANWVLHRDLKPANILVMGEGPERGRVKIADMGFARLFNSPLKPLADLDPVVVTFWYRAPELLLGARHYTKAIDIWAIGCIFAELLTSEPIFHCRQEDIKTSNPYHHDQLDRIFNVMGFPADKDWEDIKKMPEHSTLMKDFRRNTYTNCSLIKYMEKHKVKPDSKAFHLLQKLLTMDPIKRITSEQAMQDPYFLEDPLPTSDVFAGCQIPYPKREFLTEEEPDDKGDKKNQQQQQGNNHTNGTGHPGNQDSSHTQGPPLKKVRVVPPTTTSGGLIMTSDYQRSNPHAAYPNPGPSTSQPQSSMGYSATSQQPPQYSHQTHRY
UniProt Q13163, sequence (whole entry, looked up): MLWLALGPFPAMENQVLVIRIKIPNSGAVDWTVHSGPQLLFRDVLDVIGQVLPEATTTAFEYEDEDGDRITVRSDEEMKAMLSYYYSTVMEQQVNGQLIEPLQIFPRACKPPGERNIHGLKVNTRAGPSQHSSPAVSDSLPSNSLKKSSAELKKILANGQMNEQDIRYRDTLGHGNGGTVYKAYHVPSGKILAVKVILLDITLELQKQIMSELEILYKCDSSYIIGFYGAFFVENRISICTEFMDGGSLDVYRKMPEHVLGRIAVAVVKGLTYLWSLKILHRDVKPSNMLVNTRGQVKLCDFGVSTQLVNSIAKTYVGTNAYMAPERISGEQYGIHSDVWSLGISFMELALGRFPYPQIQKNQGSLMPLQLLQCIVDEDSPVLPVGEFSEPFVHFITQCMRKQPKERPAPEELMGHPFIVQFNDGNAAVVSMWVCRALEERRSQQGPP

Sample 1 — effect on: cell-free assay; technique: competition with immobilised ligand; concentration: 1 µM
SMILES: Cn1nc(C(F)(F)F)cc1-c1cnc(N2CCc3cc(S(=O)(=O)Nc4c(F)cc(Cl)cc4F)cc(N4CCCC4=O)c32)nc1
target | remaining binding [%]
COQ8B (Homo sapiens, UniProt Q96D53) | 100
CLK3 (Homo sapiens, UniProt P49761) | 88
IRAK1 (Homo sapiens, UniProt P51617) | 72
CDK3 (Homo sapiens, UniProt Q00526) | 91
CDK8 (Homo sapiens, UniProt P49336) | 96
Non-receptor tyrosine-protein kinase TYK2, JH2 (TYK2, Homo sapiens, UniProt P29597) | 90
PRKAA2 (Homo sapiens, UniProt P54646) | 97
MAP2K5 (Homo sapiens, UniProt Q13163) | 83

Sample 2 — effect on: enzyme activity; mode: inhibitor; concentration: 0.5 µM; reference: control
Target: Phosphorylase b kinase gamma catalytic chain, liver/testis isoform (PHKG2, Homo sapiens, UniProt P15735)
UniProt P15735, sequence (whole entry, looked up): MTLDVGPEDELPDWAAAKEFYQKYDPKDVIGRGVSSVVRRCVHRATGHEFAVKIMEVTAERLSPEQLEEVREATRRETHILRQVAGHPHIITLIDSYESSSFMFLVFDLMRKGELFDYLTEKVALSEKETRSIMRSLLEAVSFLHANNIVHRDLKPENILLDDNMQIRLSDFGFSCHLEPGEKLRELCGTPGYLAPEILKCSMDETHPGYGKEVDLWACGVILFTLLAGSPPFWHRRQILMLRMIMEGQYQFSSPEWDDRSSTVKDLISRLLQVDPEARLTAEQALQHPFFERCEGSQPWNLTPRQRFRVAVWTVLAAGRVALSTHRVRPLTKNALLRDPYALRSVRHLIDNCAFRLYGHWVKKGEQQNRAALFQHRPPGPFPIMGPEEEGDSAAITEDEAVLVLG
SMILES | remaining activity [%]
CO[C@H]1C[C@@H]2CC[C@@H](C)[C@@](O)(O2)C(=O)C(=O)N2CCCC[C@H]2C(=O)O[C@H]([C@H](C)C[C@@H]2CC[C@@H](O)[C@H](OC)C2)CC(=O)[C@H](C)/C=C(\C)[C@@H](O)[C@@H](OC)C(=O)[C@H](C)C[C@H](C)/C=C/C=C/C=C/1C | 108
OCC(O)CCON=C1C(c2c(O)[nH]c3ccccc23)=Nc2ccccc21 (stereo not shown) | 34.9
Nc1ncnc2n[nH]c(Nc3ccc(F)cc3)c12 | 101
COc1cc2ncnc(Nc3ccc(F)c(Cl)c3)c2cc1OCCCN1CCOCC1 | 93.9
COc1ccc(C(=O)Nc2sc3c(c2C(N)=O)CCCC3)cc1OC | 106
Oc1ccc(-c2nc(-c3ccncc3)c(-c3ccc(F)cc3)[nH]2)cc1 | 94.3
CN(C)c1ccc(C=C2C(=O)Nc3ccccc32)cc1 | 95.9
NCCNc1ncc(C(N)=O)c(Nc2cccc(C(F)(F)F)c2)n1 | 78.3
COc1ccc(CNC(=O)Nc2ncc([N+](=O)[O-])s2)cc1 | 105
Cn1c2ccccc2c2c3c(c4c5ccccc5n(CCC#N)c4c21)CNC3=O | 8.4
Nc1ccc2ncnc(NCCc3ccc(Oc4ccccc4)cc3)c2c1 | 98.7
Cc1cccc(-c2[nH]c(C(C)(C)C)nc2-c2ccc3c(c2)OCO3)n1 | 107
O=c1c2ccccc2[nH]c(=S)n1CCN1CCC(=C(c2ccc(F)cc2)c2ccc(F)cc2)CC1 | 100
O=C1NC(=O)C(c2cn(CCCO)c3ncccc23)=C1c1cnccn1 | 102
N#CC(C#N)=C(N)/C(C#N)=C/c1ccc(O)cc1 | 96.7

Sample 3 — medium: plasma
Compound: O=C1CCC(N2Cc3cc(C4CCN(Cc5ccccc5)CC4)ccc3C2=O)C(=O)N1 (stereo not shown)
test system | setting | plasma concentration
ICR mouse, male | oral, 3 mg/kg, 8 h | 4.06 ng/mL and 7.47 ng/mL and 3.59 ng/mL
ICR mouse, male | oral, 3 mg/kg, 4 h | 26.6 ng/mL and 42.6 ng/mL
male Sprague Dawley rats | oral, 3 mg/kg, 2 h | 63.5 ng/mL
rat Sprague Dawley male | intravenous, 1 mg/kg, 1 h | 68.7 ng/mL and 62.2 ng/mL
male ICR mice | oral, 3 mg/kg, 1 h | 224 ng/mL
ICR mouse, male | oral, 3 mg/kg, 2 h | 83.6 ng/mL and 122 ng/mL
male ICR mice | intravenous, 1 mg/kg, 6 h | 10.7 ng/mL
male ICR mice | oral, 3 mg/kg, 0.25 h | 221 ng/mL

Sample 4 — cell line: mouse MPNST tumor cells; technique: high-content nuclear imaging; refers to: cell number; concentration: 10 µM; time: 12 h; notes: mean of 2 replicates; reference: plate mean; reading: higher = more cells
SMILES | nuclei count [z-score]
Nc1nc2c(c(N3CC[C@@H](N)C3)n1)CCCc1ccccc1-2 | -0.41
CCCCc1ncc(/C=C(\Cc2cccs2)C(=O)O)n1Cc1ccc(C(=O)O)cc1 | 3.61
Cn1cccc1/C=C1\C(=O)NC(=O)c2ccccc21 | -2.52
O=C(O)COCCN1CCN(C(c2ccccc2)c2ccc(Cl)cc2)CC1 (stereo not shown) | -1.28
COc1ccc(-c2csc(NC(=O)[C@H]3CCCCN3S(=O)(=O)c3ccc(C)cc3)n2)cc1 | 2.92

Mixed results
Structure (SMILES) | assay | test system | setting | quantity | value
CC(C)n1cnc(-c2ccc(F)cc2)c1-c1ncc(C(=O)Nc2ccc(N3CCN(C)CC3)cc2)[nH]1 | phase 2a clinical trial | patients with idiopathic pulmonary fibrosis | 30 mg once daily | patients with Gingivitis TEAE | 0%

Some of these lines once more (sample 3):
test system | setting | plasma concentration
male ICR mice | intravenous, 1 mg/kg, 6 h | 10.7 ng/mL
ICR mouse, male | oral, 3 mg/kg, 4 h | 26.6 ng/mL and 42.6 ng/mL
ICR mouse, male | oral, 3 mg/kg, 2 h | 83.6 ng/mL and 122 ng/mL
male ICR mice | oral, 3 mg/kg, 1 h | 224 ng/mL
male ICR mice | oral, 3 mg/kg, 0.25 h | 221 ng/mL
